Experimental data pooled from the literature.
Each line is one published result; not all experiments were run side by side. Numbers after ± are the reported error.
AR: Androgen receptor (AR, Homo sapiens, UniProt P10275)
GLP1R: Glucagon-like peptide 1 receptor (GLP1R, Homo sapiens, UniProt P43220)
LGALS3: Galectin-3 (LGALS3, Homo sapiens, UniProt P17931)
T1: i-motif DNA hif-1α promoter (Homo sapiens); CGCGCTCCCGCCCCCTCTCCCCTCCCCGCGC

Compound	target	assay	system	conditions	scale	measurement	result
CCCCCCCCCCCCSc1nc2c([nH]1)c(=O)n(C)c(=S)n2C	AR	reporter gene, antagonist, PSA-luciferase	HeLa-A6	10 µM, 24 h, with: 5 nM dihydrotestosterone	reference: maximal activity	remaining activity	91%
NC(=O)CN1C(=O)C(O)(CC(=O)c2cccc(N)c2)c2ccccc21 (stereo not shown)	uncharacterized protein (Leishmania donovani, UniProt A0A3Q8IA09)	competitive vs direct ITC	–	with: aspartate or glutamate	–	binding free energy decrease	0.2 to 0.5 kcal/mol
CN(C1COC1)C(C)(C)/C=C(\C#N)C(=O)N1CCC[C@H]1Cn1nc(-c2ccc(Oc3ccccc3)cc2F)c2c(N)ncnc21	Tyrosine-protein kinase (Rattus norvegicus, UniProt Q5S255)	–	rat, PBMC	oral, 40 mg/kg, 6 (unit not given)	–	receptor occupancy	82 ± 5%
CC(C)[C@H]1CC[C@@]2(CO2)[C@@H]2[C@@H]1C=C(C(=O)O)C[C@H]2O	Glyceraldehyde-3-phosphate dehydrogenase (GAPDH, Homo sapiens, UniProt P04406)	covalent inhibitor	–	–	–	KI(inact)	4700 ± 500 µM
CN(C)c1ccc2c(-c3ccc(C(=O)NCCCC[C@@H](NC(=O)[C@@H](CCCNC(=N)N)NC(=O)[C@@H](CCCNC(=N)N)NC(=O)[C@@H](CCCNC(=N)N)NC(=O)[C@@H](CCCNC(=N)N)NC(=O)[C@@H](CCCNC(=N)N)NC(=O)[C@@H](CCCNC(=N)N)NC(=O)CCCCCNC(=O)[C@@H](CCCNC(=N)N)NC(=O)CCCCCNC(=O)c4ccc(-c5ccnc(N)n5)s4)C(N)=O)cc3C(=O)[O-])c3ccc(=[N+](C)C)cc-3oc2c1	cGMP-dependent protein kinase 1, isoform alpha (PRKG1, Homo sapiens, UniProt Q13976)	fluorescence anisotropy	–	with: cGMP, no Mg2+	–	affinity increase by cGMP	5 fold
CC(C)(Cn1cc(-c2cnc3cccnn23)nn1)c1c[nH]c2ccccc12	GLP1R	positive allosteric modulator, item: cAMP	–	with: GLP-1(9-36) L20A	reference: wild-type GLP-1(9-36)	potentiation	decreased
CC(C)C[C@H](NC(=O)[C@H](Cc1ccc(O)cc1)NC(=O)[C@@H](CCCNC(=N)N)NC(=O)[C@@H](CO)NC(=O)[C@H](Cc1ccccc1)NC(=O)[C@H](CC1CCCCC1)NC(=O)[C@H](CC(=O)O)NC(=O)CCC(C(=O)O)N1CCCN2CCN(CCCN(CC(=O)O)CC2)CC1)C(=O)N[C@@H](Cc1c[nH]c2ccccc12)C(=O)N[C@@H](CO)C(=O)O (stereo partly shown)	Urokinase plasminogen activator surface receptor (Homo sapiens, UniProt Q03405)	binding, SPR	–	–	–	kon	400000 M⁻¹ s⁻¹
CC1(CO)CCCC2(C)C1CCC1(C)c3cocc3CCC12 (stereo not shown)	AR	reporter gene, antagonist	CV-1 transfected with AR	10 µM, 24 h, with: R1881 1 nM	–	transcriptional activity	inhibited
COc1ccc(-c2cc(C(F)(F)F)nc(S(=O)(=O)CCCC(=O)Nc3c(F)cc(F)cc3Br)n2)cc1OC	GLP1R	cAMP, agonist	–	–	–	Emax	56%
Cc1ccc(C)c2sc(NC(=O)C3CCN(S(=O)(=O)c4ccc(F)cc4)CC3)nc12	N-acyl-phosphatidylethanolamine-hydrolyzing phospholipase D (Napepld, Mus musculus, UniProt Q8BH82)	activator	RAW264.7	concentration not given, with: PED-A1	–	enzyme activity	increased
CC[C@H](C)[C@H](NC(=O)[C@@H](NC(=O)[C@H](Cc1ccc(O)cc1)NC(=O)[C@H](Cc1ccc(OP(=O)(O)O)cc1)NC(=O)[C@H](CC(N)=O)NC(=O)[C@H](CCC(=O)O)NC(=O)[C@H](Cc1ccccc1)NC(=O)[C@@H](NC(=O)[C@H](CO)NC(=O)[C@H](CCC(=O)O)NC(=O)[C@H](CCCCN)NC(=O)[C@H](Cc1ccccc1)NC(=O)[C@@H](N)CCCCN)C(C)C)C(C)C)C(=O)N[C@@H](Cc1ccc(O)cc1)C(=O)N[C@@H](CO)C(=O)N[C@@H](CO)C(=O)N[C@@H](CCSC)C(=O)N[C@@H](CC(C)C)C(=O)N[C@@H](Cc1ccc(O)cc1)C(=O)N[C@@H](CCCNC(=N)N)C(N)=O	Fibroblast growth factor 14 (Homo sapiens, UniProt Q92915)	–	–	–	–	koff	0.0897 ± 0.039 s⁻¹
NC(=O)C1CCNC(=O)C(CCCNC(=O)c2cnccn2)NC(=O)C(CC2CCCCC2)NC(=O)C(CC2CC2)NC(=O)C=CC(=O)N1 (stereo not shown)	Receptor tyrosine-protein kinase erbB-4 (ERBB4, Homo sapiens, UniProt Q15303)	DNA-templated library selection	–	one selection round	–	enrichment factor	1.2
CC(C)C[C@H](NC(=O)CN)C(=O)N[C@@H](CO)C(=O)N[C@@H](Cc1ccccc1)C(=O)N[C@@H](C)C(=O)N[C@@H](Cc1ccccc1)C(=O)N1CCC[C@H]1C(=O)N[C@@H](C)C(=O)N[C@@H](CCCCN)C(=O)N[C@@H](CC(=O)O)C(=O)N[C@@H](C)C(=O)N[C@@H](CCC(=O)O)C(=O)N[C@@H](CC(N)=O)C(=O)N[C@@H](C)C(=O)N[C@@H](CO)C(=O)N[C@@H](CO)C(=O)N1CCC[C@H]1C(=O)N[C@H](C(=O)O)C(C)C	Peptide cyclase 1 (Gypsophila vaccaria, UniProt R4P353, S562A)	ITC	–	pH 8.0, 25 °C	–	–TΔS	-2.19 kcal/mol
CC(=O)N[C@H]1[C@@H](O[C@H](C)[C@H](NC(=O)[C@@H](NC(=O)CNC(=O)[C@@H](N)Cc2c[nH]cn2)C(C)C)C(=O)N[C@@H](CO)C(=O)N[C@@H](C)C(=O)N2CCC[C@H]2C(=O)N[C@@H](CC(=O)O)C(=O)N[C@H](C(=O)N[C@@H](CCCNC(=N)N)C(=O)N2CCC[C@H]2C(=O)N[C@@H](C)C(=O)N2CCC[C@H]2C(=O)NCC(=O)N[C@@H](CO)C(N)=O)[C@@H](C)O)O[C@H](CO)[C@H](O)[C@@H]1O[C@@H]1O[C@H](CO)[C@H](O)[C@H](O)[C@H]1O	LGALS3	binding, isothermal titration calorimetry	–	full-length protein	–	–ΔG	5.29 kcal/mol
O=C(NCCCN1CCC(Cc2ccccc2)CC1)c1cccc2ccccc12	Sodium-dependent serotonin transporter (SLC6A4, Homo sapiens, UniProt P31645)	serotonin uptake, inhibitor	HEK293	with: [3H]serotonin	–	IC50	7.51 µM
O=C(O)C1OC(OC2C(C(=O)O)OC(OC3C(C(=O)O)OC(OC4C(C(=O)O)OC(O)C(O)C4O)C(O)C3O)C(O)C2O)C(O)C(O)C1O (stereo not shown)	Beta-lactoglobulin (LGB, Bos taurus, UniProt P02754, A134V/G80D)	isothermal titration calorimetry	–	concentration not given, pH 4.00, 37 °C, 50 mM KH2PO4	ligand per protein	binding stoichiometry	4
CC(Oc1cc(-c2ccccc2)nc2ncccc12)C(=O)N(C)c1ccccc1 (stereo not shown)	Translocator protein (Tspo, Rattus norvegicus, UniProt P16257)	binding	rat brain homogenate	pKi minus clogD	–	lipophilic efficiency	5.63 ± 0.04
COC(=O)c1ccc(CNC(=O)[C@@H]2C[C@@H](O)CN2C(C)=O)cc1	von Hippel-Lindau disease tumor suppressor, with Elongin B/C (VHL, Homo sapiens, UniProt P40337)	isothermal titration calorimetry	–	25 °C	–	entropic term (−TΔS)	-0.53 ± 0.02 kcal/mol
COc1cccc(C(=O)N[C@H]2[C@@H](O)[C@@H](CO)O[C@@H](S[C@@H]3O[C@H](CO)[C@H](O)[C@H](NC(=O)c4cccc(OC)c4)[C@H]3OS(=O)(=O)O)[C@@H]2O)c1	LGALS3	ITC	–	Kd fixed from FP	–	ΔG	-9.871 ± 0.0717 kcal/mol
CCc1nc2cc3ccccc3cc2cc1C(=O)N1CCC[C@H]1C(=O)N[C@@H](CCC/C=C/CCC[C@H](NC(=O)[C@@H]1CCCN1C(=O)c1cc2cc3ccccc3cc2nc1CC)C(=O)N[C@@H](CCCCN)C(=O)NCCCN)C(=O)N[C@@H](CCCCN)C(=O)NCCCN	(CUG)10 RNA	SPR	–	–	–	residence time	1270 s
CCC(=O)N(C)c1ccc(Cl)c(Cl)c1	Aryl hydrocarbon receptor (AHR, Homo sapiens, UniProt P35869)	reporter gene, agonist	–	3.2 µM	reference: vehicle	fold activation	1.86 fold
CNc1ccccc1C(=O)O[C@H]1C[C@H](n2cnc3c(N)ncnc32)O[C@@H]1COP(=O)(O)OP(=O)(O)O	Unconventional myosin-Va (Gallus gallus, UniProt Q02440, D297C/G292C/I296C/S293C/V295G)	stopped-flow FRET	–	15 °C, with: MgCl2 2 mM	–	dissociation rate constant	4.5 ± 0.1 s⁻¹
CC(C)(C)c1c[c-]c(-c2cncc(-c3[c-]cc(C(C)(C)C)cc3)n2)cc1.CN1[C]N(C)c2c1c(=O)n(C)c(=O)n2C.[Au+3]	T1, i-motif DNA hif-1α promoter (Homo sapiens)	FRET DNA melting	–	20 µM, pH 7.2, NaCl 100 mM, upper bound	–	melting temperature shift	24 °C
CCOCCNC(=O)N1CCC[C@H](c2n[nH]c(-c3ccccc3)n2)C1	Aromatase (CYP19A1, Homo sapiens, UniProt P11511)	enzyme activity, inhibitor, MFC to HFC conversion	–	5 µM, with: MFC substrate	–	apparent Vmax	0.68 pmol HFC/min/pmol P450
CCCN(CC(=O)N(CCC)CC(=O)N(CCC)CC(=O)N(CCC)CC(=O)N(CC(N)=O)Cc1cn(CCCNC(=O)CCCOc2cccc(-c3nc4ccc(-c5nc6ccc(N7CCN(C)CC7)cc6[nH]5)cc4[nH]3)c2)nn1)C(=O)CNCc1cn(CCCNC(=O)CCCOc2cccc(-c3nc4ccc(-c5nc6ccc(N7CCN(C)CC7)cc6[nH]5)cc4[nH]3)c2)nn1	MBNL1–r(CUG)109 complex	MBNL1 displacement	0.65 pmol r(CUG)109	unit not given, with: yeast tRNA 3.7 µM	reference: monomer 2 IC50 per module	multivalent effect	5
